Assay results gathered from unrelated publications.
Parts stem from different laboratories: compare values within a part only.

Block 1 — technique: RNA Bind-n-Seq; form: RNA; medium: in vitro; tested at: 200 nM; setting: whole 134-nt RNA, ends assumed; added: 150 mM KCl; reference: input library; reading: higher = stronger binding; endpoint: log2 enrichment
Target: Fragile X messenger ribonucleoprotein 1, C-terminal low-complexity region (Fmr1, Mus musculus, UniProt P35922)
GGGAGUUCUACAGUCCGACGAUCUAUCCCCUAUGAGGCACCACGUAAGACCUCCUGCCCUUAGCUCUCUUGCUCACCACCCAAGAACCUCAGGACAGAAGCGAGAGCCCAUUGUGGAAUUCUCGGGUGUCAAGG: 0.73
GGGAGUUCUACAGUCCGACGAUCCAAGUCCUGUGCUACACAUCGUAUGUACCGAAUCGGGGUUUGGGGUUUGGUUUGGAAAGUAUUAUGUUACGCCGUUCGGAUCUGCACUUCUGGAAUUCUCGGGUGUCAAGG: 0.142
GGGAGUUCUACAGUCCGACGAUCCAAGUCCUGUGCUACACAUCGUAUGUACCGAAUCGGGGAAAGGGAAAGGGAAAGGAAAGUAUUAUGUUACGCCGUUCGGAUCUGCACUUCUGGAAUUCUCGGGUGUCAAGG: -0.126

Block 2 — technique: protein-binding microarray; form: double-stranded DNA, one strand shown; medium: in vitro; tested at: 250 nM; setting: 60-bp whole probe; added: salmon DNA 0.4 mg/ml; reference: random background probes; reading: higher = stronger binding; endpoint: log fluorescence
Target: Interferon regulatory factor 5, full length, phosphomimetic (IRF5, Homo sapiens, UniProt Q13568-2, residues 1-514, K96S/S451D/S453D/S456D/S462D)
All sequences stand within: GCCTAGCAC … GTGCTAGGTCTTGATTCGCTTGACGCTGCTG
TTAGGACTGCGTATCCTTTA: -0.316 z-score
TTATGACTGCTTATCCTTTA: 0.124 z-score
CCTAGTTTTACTTTCTATCT: 5.38 z-score
TCAAGAATCCCCTTCTAACT: -0.101 z-score
TTAGGTTTCGGACTGCGTTA: 5.54 z-score
TTATGGTGTGGAGAAGGCAC: -0.282 z-score

Block 3 — technique: protein binding microarray; form: double-stranded DNA, one strand shown; medium: in vitro; tested at: not given; reference: not given; reading: higher = stronger binding; endpoint: E-score
Target: Histone acetyltransferase KAT6A, winged helix 2, GST fusion (KAT6A, Homo sapiens, UniProt Q92794, residues 85-181)
Setting: 8-mer, flanks averaged, mean of 2 arrays, mostly near background
Target sequence (chain): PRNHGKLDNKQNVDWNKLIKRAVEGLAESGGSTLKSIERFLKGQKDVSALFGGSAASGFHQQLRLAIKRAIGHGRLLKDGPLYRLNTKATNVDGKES
ACGACATA: -0.0573
ACGCGCTC: 0.134
AAGAGGGG: -0.0226
AAAAAACT: 0.0315
CCATAAGA: -0.0559
ACAGTCAC: -0.25
TCGTGGCA: 0.0532
GCCACAGA: -0.032
GGGTGAAA: 0.075
GAAAATCA: -0.0134
ATCAGAAT: -0.00938
GAAGTGGA: 0.0704
CGTATTGA: -0.138
GAATGGTC: -0.123
ACATAGGC: -0.144

Block 4 — technique: competition protein-binding microarray; form: double-stranded DNA, one strand shown; medium: in vitro; tested at: 2 µM; added: Pho4 competitor, 0.05 µM; reading: higher = stronger binding; endpoint: fluorescence intensity; all sequences stand within: … GTCTTGATTCGCTTGACGCTGCTG
Target: Centromere-binding protein 1, full length, His-tagged (CBF1, Saccharomyces cerevisiae, UniProt P17106, residues 1-351)
Chain of UniProt P17106 (whole entry, looked up): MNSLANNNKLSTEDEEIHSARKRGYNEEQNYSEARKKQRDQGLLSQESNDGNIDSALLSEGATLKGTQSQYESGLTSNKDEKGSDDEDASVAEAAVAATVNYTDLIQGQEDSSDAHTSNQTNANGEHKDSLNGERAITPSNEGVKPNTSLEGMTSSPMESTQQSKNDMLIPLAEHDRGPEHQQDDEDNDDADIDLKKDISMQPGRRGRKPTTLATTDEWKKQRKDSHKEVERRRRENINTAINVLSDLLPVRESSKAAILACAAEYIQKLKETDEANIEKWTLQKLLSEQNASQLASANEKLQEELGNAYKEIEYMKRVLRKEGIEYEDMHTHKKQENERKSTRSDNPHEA
Setting: whole 60-bp probe, lowest competitor level
CTGTTGGATATGCTTGTCGTGATGGAATACTGTTCT: 82.1 a.u.
CTTCTGTAAATTTGTCACCGCACTTGACGCGCCCCG: 78.4 a.u.
GAAACCATCTTTTTCAACGTGTTGGAAACAGTAGGT: 97.1 a.u.
CATACCCAACCTTTTCACGTGGGCTAAGATATTTGT: 996 a.u.
ATACTTTCATCACATCAGGTGGTTTAGGTACGATGG: 302 a.u.

Single results of other studies
PhoQ, residues 284 288 289 292 302 303 SLCLSL  fold induction (PhoP, residues 12 14 15 18 19 NQFFI (Escherichia coli, UniProt P23836); Sort-seq, item: YFP reporter; E. coli; PhoQ-PhoP variant library, added: 10 µM Mg2+; reference: high Mg2+ state, higher = stronger signaling): 8.55

Some of these lines once more (block 3):
ACAGTCAC: -0.25
TCGTGGCA: 0.0532
GCCACAGA: -0.032
